Results collected from several papers.
Compare with care: the assays were run in different laboratories. Numbers after ± are the reported error.

Structure (SMILES)	cell line	assay	system	conditions	how to read	endpoint	value
CCCc1cc(OC)c2c(c1OC)OCO2	DU-145	cell growth or viability, MTT	–	72 h	–	GI50	> 250000 nM
CC1=CCC23OC2(C)CCC2C(C[N+](C)(C)C)C(=O)OC2C13.[I-] (centres unmarked)	DU-145	cell growth or viability, SRB	–	8.3 µM	–	inhibition	86.3%
CC/C=C\C/C=C\C/C=C\C/C=C\C/C=C\C/C=C\CCC(=O)Nc1ccn(C2OC(CO)C(O)C2(F)F)c(=O)n1 (centres unmarked)	EKVX	NCI60 screen	–	–	–	CC50	52.9 µM
N=C(N)NCCC[C@H](N)C(=O)NCC(=O)N[C@@H](CC(=O)O)C(=O)O	NIH 3T3 fibroblasts	–	peptide-functionalised PEG-glass	concentration not given, 4 h	–	cell perimeter	297 ± 116 µm
CC(C)[C@@H](C)/C=C/[C@@H](C)[C@H]1CC[C@@H]2[C@]1(C)CC[C@H]1[C@]23C=C[C@]2(C[C@@H](OC(=O)CCCC(=O)O)CC[C@]12C)OO3	HMEC	cell viability, CellTiter-Glo	–	–	–	EC50	> 20 µM
Cc1cccc(O)c1C(=O)OCC1(O)C(Nc2ccc3c(c2)Cc2ccccc2-3)C(N)C(NC(=O)N(C)C)(C(C)O)C1(C)O (centres unmarked)	DU-145	cell growth or viability, SRB	–	–	–	GI50	1370 nM
CNC(=O)c1cc(Oc2ccc(NC(=O)c3ccc(-c4cccc(COC(=O)CCC(=O)OC5OC6OC7(C)CCC8C(C)CCC(C5C)C68OO7)c4)cn3)cc2)ccn1 (centres unmarked)	Huh-7	western blot	–	concentration not given, 48 h	–	Bcl-2 protein level	decreased
CSCC[C@H](NC(=O)[C@H](CC(C)C)NC(=O)CNC(=O)[C@H](Cc1ccccc1)NC(=O)[C@H](Cc1ccccc1)NC(=O)[C@H](CCC(N)=O)NC(=O)[C@H](CCC(N)=O)NC(=O)[C@@H]1CCCN1C(=O)[C@H](CCCCN)NC(=O)[C@@H]1CCCN1C(=O)[C@@H](N)CCCNC(=N)N)C(N)=O	rat peritoneal mast cells	histamine release	–	10 min, 37 °C, with: 2 mM CaCl2	–	EC25	15 ± 2.3 µM
CC(C)CC(O)(CC(C)C)c1cn(C(=O)N2CCCC2)nn1	mouse T-cells	N-terminal labeled proteins, N-terminal enrichment proteomics, item: ARHGEF2	–	1 nM, 6 h	baseline: DMSO	SILAC ratio	4.41 ± 0.55
CC1CN1c1cc(O)c2nc(N)sc2c1 (centres unmarked)	NUP98-NSD1 mouse cells	qPCR, item: Hoxa9, Hoxa5, Hoxa7, Meis1	–	concentration not given, 8 days	–	mRNA level reduction	≤ 50%
CC[C@H](C)[C@H](NC(=O)[C@H](CCC(=O)O)NC(=O)CNC(=O)[C@@H](NC(=O)[C@H](CC(C)C)NC(=O)[C@H](CC(C)C)NC(=O)[C@H](CC(C)C)NC(=O)[C@H](CC(C)C)NC(=O)[C@H](CS)NC(=O)[C@H](CO)NC(=O)[C@H](Cc1ccccc1)NC(=O)CNC(=O)[C@H](CCCNC(=N)N)NC(=O)[C@@H]1CCCN1C(=O)[C@H](C)NC(=O)[C@H](CCSC)NC(=O)CNC(=O)CNC(=O)[C@H](Cc1ccccc1)NC(=O)[C@H](CCCCN)NC(=O)[C@H](Cc1c(C)cc(O)cc1C)NC(=O)[C@H](N)CCCNC(=N)N)[C@@H](C)O)C(=O)N[C@@H](CC(=O)O)C(=O)N[C@@H](CC(C)C)C(=O)N1CCC[C@H]1C(=O)N[C@H](C(=O)N[C@@H](CCCCN)C(=O)N[C@@H](CCCNC(=N)N)C(=O)N[C@@H](CCCNC(=N)N)C(=O)N[C@@H](C)C(N)=O)C(C)C	HT-22	–	–	10 µM, 2 h, 37 °C, mitochondrial colocalisation, FITC-labelled	–	Pearson correlation coefficient	0.58

For quick reference, copied from above:
Structure (SMILES)	cell line	assay	system	conditions	how to read	endpoint	value
CC1CN1c1cc(O)c2nc(N)sc2c1 (centres unmarked)	NUP98-NSD1 mouse cells	qPCR, item: Hoxa9, Hoxa5, Hoxa7, Meis1	–	concentration not given, 8 days	–	mRNA level reduction	≤ 50%
